Measurements gathered from unrelated publications.
Every numbered part comes from another study and shows a few of its results, in no order.
Chain of UniProt P50750 (whole entry, looked up): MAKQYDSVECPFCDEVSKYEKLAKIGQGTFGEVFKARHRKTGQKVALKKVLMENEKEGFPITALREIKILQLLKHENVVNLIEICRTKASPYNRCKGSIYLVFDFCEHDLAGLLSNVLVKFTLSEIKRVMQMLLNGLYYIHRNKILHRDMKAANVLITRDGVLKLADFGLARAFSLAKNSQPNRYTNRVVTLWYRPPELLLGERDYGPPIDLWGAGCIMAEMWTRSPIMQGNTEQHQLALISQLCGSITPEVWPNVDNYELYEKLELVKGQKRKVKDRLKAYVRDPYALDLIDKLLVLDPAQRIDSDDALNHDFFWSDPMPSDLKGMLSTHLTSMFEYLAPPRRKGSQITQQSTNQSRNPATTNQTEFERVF
Chain of UniProt Q13976 (whole entry, looked up): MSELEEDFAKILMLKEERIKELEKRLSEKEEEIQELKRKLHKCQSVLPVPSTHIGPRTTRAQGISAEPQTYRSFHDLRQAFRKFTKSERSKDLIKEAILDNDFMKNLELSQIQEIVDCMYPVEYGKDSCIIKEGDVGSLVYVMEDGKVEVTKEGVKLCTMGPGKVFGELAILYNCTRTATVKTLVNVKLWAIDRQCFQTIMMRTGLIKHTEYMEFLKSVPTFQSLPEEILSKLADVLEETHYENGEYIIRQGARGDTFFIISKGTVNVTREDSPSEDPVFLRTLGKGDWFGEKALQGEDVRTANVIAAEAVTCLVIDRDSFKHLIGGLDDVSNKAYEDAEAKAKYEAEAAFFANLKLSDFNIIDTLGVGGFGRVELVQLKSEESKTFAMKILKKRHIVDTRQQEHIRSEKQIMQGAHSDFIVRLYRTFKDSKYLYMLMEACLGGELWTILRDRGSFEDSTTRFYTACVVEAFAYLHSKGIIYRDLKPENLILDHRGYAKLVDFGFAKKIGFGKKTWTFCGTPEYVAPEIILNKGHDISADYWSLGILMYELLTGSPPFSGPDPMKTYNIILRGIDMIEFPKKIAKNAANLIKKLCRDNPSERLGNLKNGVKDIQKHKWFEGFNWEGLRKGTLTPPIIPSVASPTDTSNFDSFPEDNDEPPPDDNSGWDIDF
Chain of UniProt Q12851 (whole entry, looked up): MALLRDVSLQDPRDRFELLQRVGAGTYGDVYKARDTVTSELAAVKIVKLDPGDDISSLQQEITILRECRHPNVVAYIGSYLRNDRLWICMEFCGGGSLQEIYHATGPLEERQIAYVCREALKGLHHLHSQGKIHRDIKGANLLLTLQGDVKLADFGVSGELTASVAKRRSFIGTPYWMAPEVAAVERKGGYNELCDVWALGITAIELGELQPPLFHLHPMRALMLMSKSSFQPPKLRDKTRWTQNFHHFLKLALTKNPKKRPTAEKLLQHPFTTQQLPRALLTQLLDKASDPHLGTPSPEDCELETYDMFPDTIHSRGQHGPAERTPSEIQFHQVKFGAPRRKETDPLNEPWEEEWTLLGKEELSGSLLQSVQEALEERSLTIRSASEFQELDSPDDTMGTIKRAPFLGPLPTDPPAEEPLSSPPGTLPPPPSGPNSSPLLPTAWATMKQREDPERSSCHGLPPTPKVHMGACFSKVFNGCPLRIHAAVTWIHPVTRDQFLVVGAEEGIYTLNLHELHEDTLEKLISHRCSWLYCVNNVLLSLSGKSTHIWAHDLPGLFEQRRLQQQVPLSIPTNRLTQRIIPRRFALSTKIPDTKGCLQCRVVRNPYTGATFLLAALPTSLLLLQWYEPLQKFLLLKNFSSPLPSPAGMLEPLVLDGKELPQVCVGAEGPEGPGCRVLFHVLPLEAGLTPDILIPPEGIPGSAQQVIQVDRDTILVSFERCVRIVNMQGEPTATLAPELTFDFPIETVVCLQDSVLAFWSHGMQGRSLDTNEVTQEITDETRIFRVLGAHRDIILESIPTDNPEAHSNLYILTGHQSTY
Chain of UniProt P54756 (whole entry, looked up): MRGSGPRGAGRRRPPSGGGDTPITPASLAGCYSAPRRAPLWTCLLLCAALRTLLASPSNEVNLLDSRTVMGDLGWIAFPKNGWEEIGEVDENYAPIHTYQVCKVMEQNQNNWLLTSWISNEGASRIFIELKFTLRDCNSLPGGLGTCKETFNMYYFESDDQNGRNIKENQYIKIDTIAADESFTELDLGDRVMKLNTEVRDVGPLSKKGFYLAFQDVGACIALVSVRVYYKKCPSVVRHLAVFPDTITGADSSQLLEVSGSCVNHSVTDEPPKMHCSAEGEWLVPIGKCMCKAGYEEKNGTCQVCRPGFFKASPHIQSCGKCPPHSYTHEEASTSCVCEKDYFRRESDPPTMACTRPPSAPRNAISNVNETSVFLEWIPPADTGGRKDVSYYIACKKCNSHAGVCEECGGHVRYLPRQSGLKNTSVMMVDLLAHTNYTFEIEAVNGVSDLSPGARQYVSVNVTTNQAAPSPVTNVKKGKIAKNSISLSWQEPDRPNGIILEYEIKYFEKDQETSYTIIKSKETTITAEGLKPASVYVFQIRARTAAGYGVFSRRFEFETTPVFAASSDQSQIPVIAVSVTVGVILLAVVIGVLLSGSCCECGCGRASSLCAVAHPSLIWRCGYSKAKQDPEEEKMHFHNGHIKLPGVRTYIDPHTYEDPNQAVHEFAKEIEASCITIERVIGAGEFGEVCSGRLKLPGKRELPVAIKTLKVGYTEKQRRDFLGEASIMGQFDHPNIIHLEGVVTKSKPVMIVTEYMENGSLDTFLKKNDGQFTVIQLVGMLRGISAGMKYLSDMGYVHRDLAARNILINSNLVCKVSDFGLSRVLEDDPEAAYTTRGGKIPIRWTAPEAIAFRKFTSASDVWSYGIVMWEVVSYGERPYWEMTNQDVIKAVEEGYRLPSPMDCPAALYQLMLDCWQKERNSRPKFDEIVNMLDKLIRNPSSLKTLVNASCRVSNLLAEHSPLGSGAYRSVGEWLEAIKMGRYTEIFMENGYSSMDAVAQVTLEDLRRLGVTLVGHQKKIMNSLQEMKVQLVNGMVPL
Chain of UniProt Q9NWZ3 (whole entry, looked up): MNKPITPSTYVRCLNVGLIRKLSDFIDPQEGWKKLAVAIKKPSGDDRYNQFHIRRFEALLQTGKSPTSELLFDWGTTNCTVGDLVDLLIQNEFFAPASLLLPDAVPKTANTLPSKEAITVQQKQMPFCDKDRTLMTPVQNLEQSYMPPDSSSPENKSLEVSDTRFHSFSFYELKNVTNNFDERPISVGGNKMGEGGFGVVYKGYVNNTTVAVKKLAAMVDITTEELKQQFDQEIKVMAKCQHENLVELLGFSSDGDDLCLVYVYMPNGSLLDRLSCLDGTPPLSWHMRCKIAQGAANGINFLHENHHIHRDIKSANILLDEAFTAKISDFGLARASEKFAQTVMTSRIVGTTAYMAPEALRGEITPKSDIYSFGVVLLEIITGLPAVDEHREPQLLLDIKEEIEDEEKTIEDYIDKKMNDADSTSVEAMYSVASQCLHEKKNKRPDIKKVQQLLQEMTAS
Chain of UniProt P07948 (whole entry, looked up): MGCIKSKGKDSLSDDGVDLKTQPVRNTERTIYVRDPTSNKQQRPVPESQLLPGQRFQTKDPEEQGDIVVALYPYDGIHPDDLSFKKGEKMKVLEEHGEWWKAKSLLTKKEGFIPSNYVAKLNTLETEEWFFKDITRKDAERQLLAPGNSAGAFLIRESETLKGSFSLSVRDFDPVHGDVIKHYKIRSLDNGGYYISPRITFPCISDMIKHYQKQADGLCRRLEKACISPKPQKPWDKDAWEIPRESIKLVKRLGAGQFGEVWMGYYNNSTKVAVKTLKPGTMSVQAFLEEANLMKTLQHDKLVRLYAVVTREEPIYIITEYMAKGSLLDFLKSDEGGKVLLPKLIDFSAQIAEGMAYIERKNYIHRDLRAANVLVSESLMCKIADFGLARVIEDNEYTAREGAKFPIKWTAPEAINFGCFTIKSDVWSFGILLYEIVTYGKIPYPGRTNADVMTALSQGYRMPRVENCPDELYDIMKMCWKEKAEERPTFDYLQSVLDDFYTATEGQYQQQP

Set 1 — organism: Sarcocystis neurona; effect on: parasite growth; concentration: 10 µM; time: 96 h; setting: first screen; relative to: untreated
SMILES	log2 fold change
C[C@@H]1O[C@@H](OC[C@H]2O[C@@H](Oc3c(-c4ccc(O)c(O)c4)oc4cc(O)cc(O)c4c3=O)[C@H](O)[C@@H](O)[C@@H]2O)[C@H](O)[C@H](O)[C@H]1O	0.0232
Cc1c2oc3c(C)ccc(C(=O)N[C@@H]4C(=O)N[C@H](C(C)C)C(=O)N5CCC[C@H]5C(=O)N(C)CC(=O)N(C)[C@@H](C(C)C)C(=O)O[C@@H]4C)c3nc-2c(C(=O)N[C@@H]2C(=O)N[C@H](C(C)C)C(=O)N3CCC[C@H]3C(=O)N(C)CC(=O)N(C)[C@@H](C(C)C)C(=O)O[C@@H]2C)c(N)c1=O	-0.53
S=c1[nH]cnc2nc[nH]c12	-1.48
Nc1nc(Cl)nc2c1ncn2[C@H]1C[C@H](O)[C@@H](CO)O1	0.09
Nc1ccc(O)c(C(=O)O)c1	0.12
Nc1nc(O)c2ncn(COC(CO)CO)c2n1	0.17
CC[C@H]1OC(=O)[C@H](C)[C@@H](O[C@H]2C[C@@](C)(OC)[C@@H](O)[C@H](C)O2)[C@H](C)[C@@H](O[C@@H]2O[C@H](C)C[C@H](N(C)C)[C@H]2O)[C@](C)(O)C[C@@H](C)CN(C)[C@H](C)[C@@H](O)[C@]1(C)O	-0.15
CC(=O)OCC(=O)[C@@]1(O)CC[C@H]2[C@@H]3CCC4=CC(=O)CC[C@]4(C)[C@H]3C(=O)C[C@@]21C	-0.19
O=C(NCCN1CCOCC1)c1ccc(Cl)cc1	0.37
CCc1cccc2c3c([nH]c12)C(CC)(CC(=O)O)OCC3 (stereo not drawn)	0.29
C#C[C@]1(O)CC[C@H]2[C@@H]3CCC4=CC(=O)CC[C@@H]4[C@H]3CC[C@@]21C	0.19
CCCc1nc(C(C)(C)O)c(C(=O)OCc2oc(=O)oc2C)n1Cc1ccc(-c2ccccc2-c2nnn[nH]2)cc1	-0.09
CN(C)CCCN1c2ccccc2CCc2ccc(Cl)cc21	-0.3
CNCCCN1c2ccccc2CCc2ccccc21	0.0242

Set 2 — SMILES: C=CCc1ccc(O)c(-c2ccc(O)c(CC=C)c2)c1; effect on: chloride current
ANO1 del476-501/F628A: Anoctamin-1 (ANO1, Homo sapiens, UniProt Q5XXA6, del476-501/F628A)
Chain of UniProt Q5XXA6 (whole entry, unmodified, looked up): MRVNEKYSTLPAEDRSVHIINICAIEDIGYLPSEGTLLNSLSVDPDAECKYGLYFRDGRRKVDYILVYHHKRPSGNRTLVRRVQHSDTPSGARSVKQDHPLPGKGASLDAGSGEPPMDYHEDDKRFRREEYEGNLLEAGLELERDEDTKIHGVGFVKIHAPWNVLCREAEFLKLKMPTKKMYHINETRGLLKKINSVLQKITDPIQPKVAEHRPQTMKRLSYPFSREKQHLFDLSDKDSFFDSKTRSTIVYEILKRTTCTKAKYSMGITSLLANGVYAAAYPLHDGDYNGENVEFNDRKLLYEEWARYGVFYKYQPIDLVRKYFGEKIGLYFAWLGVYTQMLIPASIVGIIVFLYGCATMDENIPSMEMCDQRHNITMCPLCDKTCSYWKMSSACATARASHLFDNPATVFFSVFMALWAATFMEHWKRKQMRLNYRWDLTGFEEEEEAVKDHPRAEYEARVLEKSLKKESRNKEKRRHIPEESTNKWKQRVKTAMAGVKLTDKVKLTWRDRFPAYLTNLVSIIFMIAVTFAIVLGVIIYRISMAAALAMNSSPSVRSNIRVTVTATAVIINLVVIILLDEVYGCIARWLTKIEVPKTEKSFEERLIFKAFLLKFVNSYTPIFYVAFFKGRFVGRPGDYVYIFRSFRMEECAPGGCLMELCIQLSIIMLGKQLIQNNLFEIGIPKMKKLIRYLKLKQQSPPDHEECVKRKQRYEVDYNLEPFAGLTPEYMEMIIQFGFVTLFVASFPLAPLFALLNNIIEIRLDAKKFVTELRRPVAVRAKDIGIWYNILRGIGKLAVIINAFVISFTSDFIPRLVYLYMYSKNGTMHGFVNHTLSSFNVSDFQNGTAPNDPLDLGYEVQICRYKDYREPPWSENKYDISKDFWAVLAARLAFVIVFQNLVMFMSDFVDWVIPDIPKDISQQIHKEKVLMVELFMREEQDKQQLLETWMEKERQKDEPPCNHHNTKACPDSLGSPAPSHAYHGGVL
ANO1 del476-501: Anoctamin-1 (ANO1, Homo sapiens, UniProt Q5XXA6, del476-501)
target	assay	conditions	normalized current
ANO1 del476-501/F628A	whole-cell voltage clamp	3 µM, concentration-response at -20 mV, added: 4 µM Ca2+	-0.177
ANO1 del476-501/F628A	whole-cell voltage clamp	30 µM, concentration-response at 80 mV, added: 4 µM Ca2+	0.389
Anoctamin-1 (ANO1, Homo sapiens, UniProt Q5XXA6, del476-501/E659A/K629A)	inside-out patch clamp	10 µM, membrane voltage -40 mV	-0.371
ANO1 del476-501/F628A	whole-cell voltage clamp	3 µM, concentration-response at -80 mV, added: 4 µM Ca2+	-0.652
Anoctamin-1 (ANO1, Homo sapiens, UniProt Q5XXA6, del476-501/K629A)	inside-out patch clamp	10 µM, membrane voltage -60 mV	-0.323
ANO1 del476-501/F628A	whole-cell voltage clamp	1 µM, concentration-response at 80 mV, added: 4 µM Ca2+	0.749
ANO1 del476-501	whole-cell voltage clamp	10 µM, wild type, concentration-response at -100 mV, added: 4 µM Ca2+	-0.244
ANO1 del476-501/F628A	whole-cell voltage clamp	3 µM, I-V at -60 mV, added: 4 µM Ca2+	-0.46
Anoctamin-1 (ANO1, Homo sapiens, UniProt Q5XXA6, del476-501/R541A)	inside-out patch clamp	10 µM, membrane voltage 100 mV	0.756
ANO1 del476-501/F628A	whole-cell voltage clamp	30 µM, I-V at 0 mV, added: 4 µM Ca2+	-0.0028
ANO1 del476-501/F628A	whole-cell voltage clamp	100 µM, I-V at -40 mV, added: 4 µM Ca2+	-0.0779
ANO1 del476-501	whole-cell voltage clamp	1 µM, wild type, I-V at 100 mV, added: 4 µM Ca2+	0.974

Set 3 — cell line: sample G normal colon organoids; method: CellTiter-Glo; sample: human patient-derived organoids; concentration: 0.1 µM; time: 4 days; relative to: DMSO control
SMILES	viability [%]
CN(C)C(=O)Cn1cc(-c2nc([C@@](C)(c3ccc(-c4cnc(N)nc4)cc3)C3CC3)no2)cn1	111
Cc1cc(C)c(-n2ccn3nc(-c4cccnc4)cc23)cc1NC(=O)c1cc(C#N)cc(S(F)(F)(F)(F)F)c1	116
COc1cccc(CNC(=O)c2nc3scc(COCc4ccc(C(=O)O)cc4)c3c(=O)[nH]2)c1	116
Cc1c(NC(=O)c2cc(C(N)=O)nc3cc(F)ccc23)c(C(F)(F)F)nn1Cc1ccc(C(C)(C)C)cc1	82.2
O=S(=O)(NC1CCC(c2cc(F)ccc2F)(S(=O)(=O)c2ccc(Cl)cc2)CC1)C(F)(F)F (stereo not drawn)	109
CC(C)(C)OC(=O)N1CCCC1CNC1CCC(c2cc(F)ccc2F)(S(=O)(=O)c2ccc(Cl)cc2)CC1 (stereo not drawn)	114
CNC(=O)c1ccc(Nc2ncc(C(F)(F)F)c(NCc3nccnc3N(C)S(C)(=O)=O)n2)cc1	91
Cc1ccc(-c2cnc([C@@]3(O)CC[C@H](C(=O)O)C(C)(C)C3)s2)cc1Nc1cccc(C(F)(F)F)n1	103
Cc1cc(Nc2nccc(C)n2)cc(-c2cnc([C@@]3(O)CC[C@H](C(=O)O)C(C)(C)C3)s2)c1	114

Set 4 — effect on: enzyme activity; action: inhibitor; concentration: 0.5 µM; relative to: control
SMILES: O=C(c1cc2cc(O)ccc2[nH]1)c1cc2cc(O)ccc2[nH]1
target	remaining activity [%]
Cyclin-dependent kinase 9, with cyclin T1 (CDK9, Homo sapiens, UniProt P50750)	76.6
MAP4K2 (Homo sapiens, UniProt Q12851)	67.1
MAPK13 (Homo sapiens, UniProt O15264)	108
EPHA5 (Homo sapiens, UniProt P54756)	100
WNK2 (Homo sapiens, UniProt Q9Y3S1)	96.6
MAP2K6 (Homo sapiens, UniProt P52564)	93.6
BTK (Homo sapiens, UniProt Q06187)	86.8
MKNK2 (Homo sapiens, UniProt Q9HBH9)	46.8
MAPK12 (Homo sapiens, UniProt P53778)	97.9
LRRK2 (Homo sapiens, UniProt Q5S007)	87.2
MAP3K10 (Homo sapiens, UniProt Q02779)	91.7
AKT3 (Homo sapiens, UniProt Q9Y243)	102
NEK4 (Homo sapiens, UniProt P51957)	87.6
PRKCI (Homo sapiens, UniProt P41743)	98.4
CSNK2A1 (Homo sapiens, UniProt P68400)	88.7
CSNK1A1 (Homo sapiens, UniProt P48729)	96.3
PRKG1 (Homo sapiens, UniProt Q13976)	90
PLK2 (Homo sapiens, UniProt Q9NYY3)	102
CHEK1 (Homo sapiens, UniProt O14757)	82.5
PRKCD (Homo sapiens, UniProt Q05655)	89.7
LYN (Homo sapiens, UniProt P07948)	34.9
IRAK4 (Homo sapiens, UniProt Q9NWZ3)	85.9

Excerpt of the above (set 4):
target	remaining activity [%]
WNK2 (Homo sapiens, UniProt Q9Y3S1)	96.6
MAP2K6 (Homo sapiens, UniProt P52564)	93.6
BTK (Homo sapiens, UniProt Q06187)	86.8
